Published values from different studies.
Values joined by “and” are separate records of one study, mostly repeats; a detail may differ. ± gives the spread as reported.

[O-][S+]1CCc2nc(N3CCC(c4ncc(Cl)cn4)CC3)nc(NC3(CO)CCC3)c21 (stereo not drawn)  adverse event incidence (item: Nausea; healthy male humans; 36 mg single dose): 0%
CC(C)(C)c1cc(-n2nc3ccccc3n2)c(O)c(C(C)(C)C)c1  daily dermal exposure dose (human aged 6-11 years; concentration not given, sunscreen, 95th percentile): 5.85 ng/kg/day
COc1ncccc1-c1cnn2ccc(N3CCN(C(=O)OC(C)C)CC3)nc12  free drug concentration (rat, STZ model, plasma; oral, 3 mg/kg, 240 min): 8.3 nM
C=CC(=O)N1CC[C@H](n2nc(C#Cc3cc(OC)cc(OC)c3)c3c(N)ncnc32)C1  serum phosphate (human patients, serum; oral, dose not given, QD, before phosphate binder start): 5.87 mg/dL
O=C(Nc1ccccc1)C1CCN(C(=O)Oc2cccnc2)CC1  subjects with Dysmenorrhoea adverse event (adverse event reporting; healthy women; oral, 20 mg, 7 days): 14.3%
CN1CCN(S(=O)(=O)c2cc([N+](=O)[O-])ccc2N(CCOS(C)(=O)=O)CCOS(C)(=O)=O)CC1  hemoglobin (NOD/SCID mouse, naive, blood; intraperitoneal, 18.8 mg/kg, week 4): 166 g/L and 148 g/L and 170 g/L and 172 g/L
CC[C@H](C)[C@H](NC(=O)[C@H](Cc1ccccc1)NC(=O)[C@H](CCC(=O)O)NC(=O)[C@H](CCCNC(=N)N)NC(=O)[C@H](C)NC(=O)[C@H](C)NC(=O)[C@H](CCC(N)=O)NC(=O)[C@H](CCC(=O)O)NC(=O)[C@H](CCC(=O)O)NC(=O)[C@H](CC(C)C)NC(=O)[C@H](Cc1ccc(O)cc1)NC(=O)[C@H](CO)NC(=O)[C@H](CO)NC(=O)[C@@H](NC(=O)[C@H](CC(=O)O)NC(=O)[C@H](CO)NC(=O)[C@@H](NC(=O)[C@H](Cc1ccccc1)NC(=O)[C@@H](NC(=O)CNC(=O)[C@H](CCC(=O)O)NC(=O)[C@H](C)NC(=O)CCc1cnc[nH]1)[C@@H](C)O)[C@@H](C)O)C(C)C)C(=O)N[C@@H](C)C(=O)N[C@@H](Cc1c[nH]c2ccccc12)C(=O)N[C@@H](CC(C)C)C(=O)N[C@H](C(=O)N[C@@H](CCCNC(=N)N)C(=O)NCC(=O)N[C@@H](CCCNC(=N)N)C(=O)N[C@@H](CCCCNC(=O)COCCOCCNC(=O)COCCOCCNC(=O)CC[C@H](NC(=O)CCCCCCCCCCCCCCCCC(=O)O)C(=O)O)C(=O)NCC(=O)NCC(=O)N[C@@H](CO)C(=O)N[C@@H](CCSC)C(=O)N[C@H](C(=O)N[C@@H](CCCCNc1c(NCCCCCN(O)C(=O)CCC(=O)NCCCCCN(O)C(=O)CCC(=O)NCCCCCN(O)C(C)=O)c(=O)c1=O)C(=O)O)C(C)C)C(C)C [zirconium-89 labelled]  tissue uptake (ex vivo gamma counting; male Sprague-Dawley rat, heart; intravenous, 1 nmol, 24 h): 0.136 %ID/g and 0.127 %ID/g and 0.134 %ID/g
Nc1ncnc2c1ncn2[C@@H]1O[C@@H]2COP(=O)([S-])O[C@@H]3[C@H](O)[C@@H](COP([O-])(=S)O[C@H]2[C@H]1O)O[C@H]3n1cnc2c(N)ncnc21.[Na+].[Na+] (stereo partly drawn)  basophil percentage (non-tumor-bearing mice, blood; intravenous, 1 mg/kg, toxicity study): 0.2 ± 0.18%
O=C(O)CCS(=O)(=O)O  plasma concentration (human; oral, 265 mg twice daily, 2 h post-dose, week 65): 322 ng/mL
C[C@@H]1OC(=O)NN=C1c1ccc(-c2ccc(F)cc2)c(C(F)(F)F)c1  patients with adverse event (phase I trial, item: Presyncope all grades; human patients; dose not given, all dose groups): 20%
N#C[C@H](O[C@@H]1O[C@H](CO[C@@H]2O[C@H](CO)[C@@H](O)[C@H](O)[C@H]2O)[C@@H](O)[C@H](O)[C@H]1O)c1ccccc1  Tmax (Sprague Dawley rat, plasma; oral, 3.34 g lyophilized powder/kg, low dose): 0.48 ± 0.39 h
CN1CC[C@@H](c2c(O)cc(O)c3c(=O)cc(-c4ccc(C(F)(F)F)cc4Cl)oc23)[C@@H]1CO  patients with adverse event (item: Fatigue; B-cell malignancies; oral, 200 mg, intermittent dosing): 0%
C1=Cc2nc1cc1ccc([n-]1)c(-c1ccccc1)c1nc(cc3ccc([n-]3)c2-c2ccccc2)C=C1.CC(=O)[O-].[Mn+3]  plasma concentration (LC-MS/MS; Sprague-Dawley rat, plasma; oral gavage, dose not given, 120 min, individual rat Rat2): 27 ng/mL
N[C@@H]1c2ccccc2OC12CCN(c1cnc3c(N4CCCc5ncccc54)n[nH]c3n1)CC2  TEAE leading to interruption (advanced metastatic solid tumour patients; oral, 60 mg once daily): 40%
O=S(=O)(Nc1ccccc1)c1ccc(NC(=S)Nc2ccccc2)cc1  blood chemistry level (item: TRIG; female mouse, blood; oral, 80 mg/kg daily, 14 days): 120 mg/dL
C/C(=N\C#N)N(C)Cc1ccc(Cl)nc1  concentration (soil; 28 days, nominal 0.37): 0.026 mg/kg dry soil
COc1ccc(-c2c(-c3ccc(C#N)c(F)c3)nc(N3CCC(N)CC3)n(C)c2=O)cc1F  treatment-related adverse event incidence (item: Thrombocytopenia; neuroendocrine neoplasm patients; oral, 60 mg, any grade, dose expansion): 69%
COc1cc2c(Oc3ccc4[nH]c(C)cc4c3F)ccnc2cc1OCC1(N)CC1  Hematuria incidence (paediatric refractory sarcoma patients; 10 mg): 0%
CC(C)[C@@H]1NC(=O)CNC(=O)[C@H](CC(N)=O)NC(=O)[C@H](CCCNC(=N)N)NC(=O)[C@H](Cc2ccc(O)cc2)NC(=O)[C@H](C(C)C)NC(=O)[C@@H](NC(=O)[C@@H](NC(=O)[C@H](CC(N)=O)NC(=O)[C@H](Cc2c[nH]c3ccccc23)NC(=O)[C@H](C)NC(=O)[C@H](Cc2ccccc2)NC(=O)CN)C(C)C)CSSC[C@@H](C(=O)N[C@@H](Cc2cnc[nH]2)C(=O)N[C@@H](CCCNC(=N)N)C(=O)N[C@@H](CCCNC(=N)N)C(=O)N[C@@H](C)C(=O)N[C@@H](CC(N)=O)C(N)=O)NC(=O)[C@H](C(C)C)NC(=O)[C@H](CCCNC(=N)N)NC1=O  AST (ICR mouse, blood; intramammary, 5 mg/kg, day 5, 3 d dosing): 25 ± 0.67 IU/L
C=CCNc1c(O)cc2c(O)c1C[C@@H](C)C[C@H](OC)[C@H](O)[C@@H](C)/C=C(\C)[C@H](OC(N)=O)[C@@H](OC)/C=C\C=C(/C)C(=O)N2  patients with lipase increase (unresectable or metastatic sarcoma; intravenous, 500 mg/m^2, grade 3-4 lab change): 0%
CCc1ccc(CC/C=C/c2ccc3c(c2)C(=O)CC3)cc1  total protein (Sprague-Dawley rat, female, serum; oral, 30 mg/kg/day, 14 days): 53.9 g/L
NCCCC[C@@H]1NC(=O)[C@@H](Cc2c[nH]c3ccccc23)NC(=O)[C@H](c2ccccc2)NC(=O)[C@@H]2C[C@@H](OC(=O)NCCN)CN2C(=O)[C@H](Cc2ccccc2)NC(=O)[C@H](Cc2ccc(OCc3ccccc3)cc2)NC1=O  subjects with injection-site pruritus (healthy human volunteers; 600 µg twice daily): 19%
CO[C@H]1C[C@@H]2CC[C@@H](C)[C@@](O)(O2)C(=O)C(=O)N2CCCC[C@H]2C(=O)O[C@H]([C@H](C)C[C@@H]2CC[C@@H](OC(=O)NCCOCCOCCOCCOCCOCCOCCOCCOCCC(=O)N3CCc4cc(Cn5nc(-c6ccc7oc(N)nc7c6)c6c(N)ncnc65)ccc4C3)[C@H](OC)C2)C[C@@H](O)[C@H](C)/C=C(\C)[C@@H](O)[C@@H](OC)C(=O)[C@H](C)C[C@H](C)/C=C/C=C/C=C/1C  vomiting incidence (patients with advanced solid tumours; intravenous, 6 mg weekly, grade 3 or higher): 8.3%
CC1(C)[C@H](C(=O)O[C@H](C#N)c2cccc(Oc3ccccc3)c2)[C@@H]1C=C(Br)Br  enzyme contribution to clearance (item: CYP1A2; human, age 5 years, recombinant human CYP1A2; 0.1 µM): 0.38%
Cn1c(-c2ccc(C(N)=O)cc2F)nnc1C(C)(C)Oc1c(F)cc(Cl)cc1F  number of TEAEs (human; oral, dose not given, single ascending dose all doses): 15
N#Cc1cc(NC(=O)[C@H]2c3ccccc3C(=O)N(CC(F)(F)F)[C@@H]2c2cccnc2)ccc1F  AUC (Beagle dog; oral, 100 mg/kg, no methemoglobinemia): ~95000 ng·h/mL
C[C@]1(CO)Cc2ncn(-c3ccc(C#N)c(Cl)c3)c2C(=O)O1  tmax (human, Chinese, plasma; 80 mg single dose, median): 1.8 h
O=C(O)C(O)(c1cccs1)c1cccs1  plasma concentration (human, plasma; 1 mg once daily of parent drug, 5 days): not detected
CC(=O)c1c(C)c2cnc(Nc3ccc(C4CCN(CCS(C)(=O)=O)CC4)cn3)nc2n(C2CCCC2)c1=O  Tmax (human, plasma; oral, 25 mg once daily, day 1, single dose): 1.17 h
C[C@@H](NC(=O)N1C(=O)[C@H](Cc2ccnc(N)c2)[C@H]1C(=O)O)C1CCCCC1  incidence of administration site extravasation (healthy adult Chinese volunteers; continuous intravenous infusion, 0.6 mg/kg/h, 5-day infusion, CTCAE 5.0 grading): 0%
Cc1cccc(Cn2nc(C3CC3)c3c(NC(=O)c4cnc5cc(OCCN6CCN(C)CC6)ccn45)cccc32)n1  adverse events incidence (item: ALT increased; human advanced solid tumours; oral, dose not given, all-causality,, all doses): 36.8%
Clc1ccc(-c2ccccc2)cc1  potassium (Sprague-Dawley rats, female, serum; inhalation, 23 µg/rat, 1 h after exposure): 8 ± 2 mmol/L
CCN1[C@@H](C(=O)NC23CCC(C(=O)O)(CC2)CC3)[C@H](c2cccc(Cl)c2F)[C@]2(C(=O)Nc3cc(Cl)ccc32)C12CCCCC2  Fatigue incidence (patients with advanced solid tumours; oral, all doses): 14.3%
O=C(c1ccc(F)c(F)c1Nc1ccc(I)cc1F)N1CC(O)([C@@H]2CCCCN2)C1  AE causing dose modification (human patients; oral, dose not given, dose escalation, tablet): 22%
Oc1c(Cl)cc2c(c1Cl)Oc1cc(Cl)c(Cl)cc1O2  milk fat partition ratio (cow whole milk; 500 nM; relative to: milk fat over skim milk): 24.2
O=C1Nc2cc3[nH]nc(-c4ccncc4)c3cc2CN1Cc1ccccc1  patients with constipation (CTCAE v4.03; advanced solid tumour patients; intravenous, 7.2 mg/kg, schedules 1/2): 40%
COc1ccc(CCC2CCCC(CCc3ccc(OC)cc3)N2C[C@@H](O)CO)cc1.Cl (stereo in doubt)  resting membrane potential change (rabbit Purkinje fibres; 0.03 µM, cycle length 1 s; relative to: baseline): -0.2 ± 0.3 mV
COc1ccc2nc3cc(Cl)ccc3c(Nc3cc(CN4CCCC4)c(O)c(CN4CCCC4)c3)c2n1  plateletcrit (mouse, blood; intraperitoneal, 28 mg/kg): 0.08%
COc1cc(N2CCC(N3CCN(C)CC3)CC2)ccc1Nc1ncnc(Nc2ccccc2S(=O)(=O)C(C)C)n1  treatment-emergent adverse events (item: Fatigue; Japanese patients with solid tumours; oral, dose not given, all grades): 9 number (percent)
